Published values collected from several papers.
Every numbered part comes from another study and shows a few of its results, in no order.
UniProt Q13283, sequence (whole entry, looked up): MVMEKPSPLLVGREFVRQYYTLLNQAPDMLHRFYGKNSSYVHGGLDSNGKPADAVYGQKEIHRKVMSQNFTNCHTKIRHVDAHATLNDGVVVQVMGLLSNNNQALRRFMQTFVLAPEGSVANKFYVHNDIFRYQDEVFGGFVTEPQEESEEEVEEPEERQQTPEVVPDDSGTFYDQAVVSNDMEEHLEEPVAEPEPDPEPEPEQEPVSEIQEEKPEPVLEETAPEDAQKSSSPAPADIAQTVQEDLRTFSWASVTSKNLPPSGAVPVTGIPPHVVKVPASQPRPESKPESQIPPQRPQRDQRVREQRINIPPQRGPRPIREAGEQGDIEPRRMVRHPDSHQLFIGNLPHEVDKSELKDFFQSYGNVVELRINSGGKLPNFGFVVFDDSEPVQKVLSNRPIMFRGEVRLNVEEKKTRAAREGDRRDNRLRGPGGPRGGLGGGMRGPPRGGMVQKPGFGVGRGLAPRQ

Set 1 — method: universal PBM; form: double-stranded DNA, one strand shown; matrix: in vitro; tested at: 600 nM; reading: higher = stronger binding
Target: Sal-like protein 4, full length isoform A (SALL4, Homo sapiens, UniProt Q9UJQ4, residues 1-1053)
UniProt Q9UJQ4, sequence (whole entry, looked up): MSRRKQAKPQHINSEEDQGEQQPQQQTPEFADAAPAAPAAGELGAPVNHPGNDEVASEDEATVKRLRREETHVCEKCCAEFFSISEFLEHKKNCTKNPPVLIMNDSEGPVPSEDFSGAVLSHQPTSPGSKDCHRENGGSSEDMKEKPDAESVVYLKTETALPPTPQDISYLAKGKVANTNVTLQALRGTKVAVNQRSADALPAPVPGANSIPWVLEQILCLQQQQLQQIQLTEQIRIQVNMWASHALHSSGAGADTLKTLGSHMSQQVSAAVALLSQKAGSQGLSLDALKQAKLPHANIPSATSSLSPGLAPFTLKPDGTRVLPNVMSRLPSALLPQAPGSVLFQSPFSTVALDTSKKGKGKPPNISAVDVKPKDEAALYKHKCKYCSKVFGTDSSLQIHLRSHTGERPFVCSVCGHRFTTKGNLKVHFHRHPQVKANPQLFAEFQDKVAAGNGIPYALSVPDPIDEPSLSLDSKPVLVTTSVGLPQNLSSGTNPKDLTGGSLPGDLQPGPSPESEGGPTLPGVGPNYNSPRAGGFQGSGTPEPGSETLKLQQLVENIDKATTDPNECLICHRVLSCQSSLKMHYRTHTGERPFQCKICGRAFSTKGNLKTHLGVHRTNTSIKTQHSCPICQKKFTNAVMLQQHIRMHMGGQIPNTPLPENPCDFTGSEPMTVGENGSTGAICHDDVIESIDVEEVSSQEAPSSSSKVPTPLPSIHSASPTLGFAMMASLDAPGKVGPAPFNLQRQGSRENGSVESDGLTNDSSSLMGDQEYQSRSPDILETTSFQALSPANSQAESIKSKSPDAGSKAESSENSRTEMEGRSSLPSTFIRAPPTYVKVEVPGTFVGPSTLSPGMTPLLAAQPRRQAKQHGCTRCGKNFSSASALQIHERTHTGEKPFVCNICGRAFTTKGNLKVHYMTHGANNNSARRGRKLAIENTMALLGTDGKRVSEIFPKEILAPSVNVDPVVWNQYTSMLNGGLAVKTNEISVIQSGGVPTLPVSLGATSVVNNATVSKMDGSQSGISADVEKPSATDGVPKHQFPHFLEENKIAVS
Notes: 8-mer, flanks averaged, mean of replicates
`ACAACGCG` gave an E-score of -0.1.
`TAACGTTA` has an E-score of 0.22.
`ATGCCCGA` has an E-score of -0.188.
The E-score of `ACGAGAGA` is reported as 0.0631.
`GAGCTGTA` has an E-score of -0.0302.

Set 2 — method: RNAcompete; form: RNA; matrix: in vitro; tested at: 20 nM; notes: 7-mer, probes averaged, single round; reference: mean of 7-mers; reading: higher = stronger binding
Target: PABPC1L2, full length, GST fusion (mouse, UniProt A0ABA7IW68)
Construct (chain): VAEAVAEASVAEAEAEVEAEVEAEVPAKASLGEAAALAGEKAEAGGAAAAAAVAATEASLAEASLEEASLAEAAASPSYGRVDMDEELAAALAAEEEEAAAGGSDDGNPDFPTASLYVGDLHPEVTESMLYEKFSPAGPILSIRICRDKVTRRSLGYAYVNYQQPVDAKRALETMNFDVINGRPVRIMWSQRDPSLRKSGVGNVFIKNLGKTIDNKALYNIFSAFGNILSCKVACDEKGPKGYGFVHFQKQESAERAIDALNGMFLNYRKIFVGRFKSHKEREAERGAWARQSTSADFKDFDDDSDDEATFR
For `UGUAUAU`, the 7-mer Z-score was -0.253.
`CUUAACU` has a 7-mer Z-score of -0.215.
`UAUUUUG` gave a 7-mer Z-score of -0.211.

Other studies, line by line
Fmr1 C-terminal low-complexity region: Fragile X messenger ribonucleoprotein 1, C-terminal low-complexity region (Fmr1, Mus musculus, UniProt P35922)
The log2 enrichment of `GGGAGUUCUACAGUCCGACGAUCCCUGUGCUACACAUCGUAUGUACCGAAUCGGGAAAAAAGGGGAAAAAAGGGAAAAAAGGGGAAAGUAUUAUGUUACGCCGUUCGGAUCUGUGGAAUUCUCGGGUGUCAAGG` is reported as -0.293 (Ras GTPase-activating protein-binding protein 1, full length (G3BP1, Homo sapiens, UniProt Q13283); RNA Bind-n-Seq; RNA, in vitro; 200 nM, whole 134-nt RNA, ends assumed, together with: 150 mM KCl; reference: input library, higher = stronger binding).
For `PhoQ, residues 284 288 289 292 302 303 SMMNNA`, the fold induction was 18.5 (PhoP, residues 12 14 15 18 19 AQALL (Escherichia coli, UniProt P23836); Sort-seq, measured: YFP reporter; E. coli; PhoQ-PhoP variant library, together with: 10 µM Mg2+; reference: high Mg2+ state, higher = stronger signaling).
`GGGAGUUCUACAGUCCGACGAUCACCAUGCAGGUGGGCAUCUUUGGGAAGUGGGGCAAGGGGGGGAUAGGGAGGGGGGUAACACUUUGGGAACAGGCGGUCCCAGGUCGUUUCUGGAAUUCUCGGGUGUCAAGG` has a log2 enrichment of 0.654 (Fmr1 C-terminal low-complexity region; RNA Bind-n-Seq; RNA, in vitro; 200 nM, whole 134-nt RNA, ends assumed, together with: 150 mM KCl; reference: input library, higher = stronger binding).
With `GGGAGUUCUACAGUCCGACGAUCGUCCUGUGCUACACAUCGUAUGUACCGAAUCGGGGAGGGGUUUUUGGGGAAAAAGGGGAAAGUAUUAUGUUACGCCGUUCGGAUCUGCACUGGAAUUCUCGGGUGUCAAGG` the log2 enrichment was 0.724 (Fmr1 C-terminal low-complexity region; RNA Bind-n-Seq; RNA, in vitro; 200 nM, whole 134-nt RNA, ends assumed, together with: 150 mM KCl; reference: input library, higher = stronger binding).

Excerpt of the above (set 1):
`ACAACGCG` gave an E-score of -0.1.
